# Results collected from several papers.
# Each line is one published result; not all experiments were run side by side.
# Partner: itself
# B1: APPBP2 1-584 (Homo sapiens, UniProt Q92624); chain MAAVELEWIPETLYNTAISAVVDNYIRSRRDIRSLPENIQFDVYYKLYQQGRLCQLGSEFCELEVFAKVLRALDKRHLLHHCFQALMDHGVKVASVLAYSFSRRCSYIAESDAAVKEKAIQVGFVLGGFLSDAGWYSDAEKVFLSCLQLCTLHDEMLHWFRAVECCVRLLHVRNGNCKYHLGEETFKLAQTYMDKLSKHGQQANKAALYGELCALLFAKSHYDEAYKWCIEAMKEITAGLPVKVVVDVLRQASKACVVKREFKKAEQLIKHAVYLARDHFGSKHPKYSDTLLDYGFYLLNVDNICQSVAIYQAALDIRQSVFGGKNIHVATAHEDLAYSSYVHQYSSGKFDNALFHAERAIGIITHILPEDHLLLASSKRVKALILEEIAIDCHNKETEQRLLQEAHDLHLSSLQLAKKAFGEFNVQTAKHYGNLGRLYQSMRKFKEAEEMHIKAIQIKEQLLGQEDYEVALSVGHLASLYNYDMNQYENAEKLYLRSIAIGKKLFGEGYSGLEYDYRGLIKLYNSIGNYEKVFEYHNVLSNWNRLRDRQYSVTDALEDVSTSPQSTEEVVQSFLISQNVEGPS
# B2: spo0J K252A/K259A (Bacillus subtilis, UniProt P26497); chain MAKGLGKGINALFNQVDLSEETVEEIKIADLRPNPYQPRKHFDDEALAELKESVLQHGILQPLIVRKSLKGYDIVAGERRFRAAKLAGLDTVPAIVRELSEALMREIALLENLQREDLSPLEEAQAYDSLLKHLDLTQEQLAKRLGKSRPHIANHLRLLTLPENIQQLIAEGTLSMGHGRTLLGLKNKNKLEPLVQKVIAEQLNVRQLEQLIQQLNQNVPRETKKKEPVKDAVLKERESYLQNYFGTTVNIARQKKKGAIEIEFFSNEDLDRILELLSERES
# B3: CRYAA R157Q (Homo sapiens, UniProt P02489); sequence looked up; chain MDVTIQHPWFKRTLGPFYPSRLFDQFFGEGLFEYDLLPFLSSTISPYYRQSLFRTVLDSGISEVRSDRDKFVIFLDVKHFSPEDLTVKVQDDFVEIHGKHNERQDDHGYISREFHRRYRLPSNVDQSALSCSLSADGMLTFCGPKIQTGLDATHAEQAIPVSREEKPTSAPSS
# B4: dlg1 1-97 R39A (Drosophila melanogaster, UniProt P31007); sequence looked up; chain MPVKKQEAHRALELLEDYHARLSEPQDRALRIAIERVIAIFKSRLFQALLDIQEFYELTLLDDSKSIQQKTAETLQIATKWEKDGQAVKIADFIKSS
# B5: mgtA 1-898 D441A (Escherichia coli, UniProt P0ABB8); chain MFKEIFTRLIRHLPSRLVHRDPLPGAQQTVNTVVPPSLSAHCLKMAVMPEEELWKTFDTHPEGLNQAEVESAREQHGENKLPAQQPSPWWVHLWVCYRNPFNILLTILGAISYATEDLFAAGVIALMVAISTLLNFIQEARSTKAADALKAMVSNTATVLRVINDKGENGWLEIPIDQLVPGDIIKLAAGDMIPADLRILQARDLFVAQASLTGESLPVEKAATTRQPEHSNPLECDTLCFMGTTVVSGTAQAMVIATGANTWFGQLAGRVSEQESEPNAFQQGISRVSMLLIRFMLVMAPVVLLINGYTKGDWWEAALFALSVAVGLTPEMLPMIVTSTLARGAVKLSKQKVIVKHLDAIQNFGAMDILCTDKTGTLTQDKIVLENHTDISGKTSERVLHSAWLNSHYQTGLKNLLDTAVLEGTDEESARSLASRWQKIAEIPFDFERRRMSVVVAENTEHHQLVCKGALQEILNVCSQVRHNGEIVPLDDIMLRKIKRVTDTLNRQGLRVVAVATKYLPAREGDYQRADESDLILEGYIAFLDPPKETTAPALKALKASGITVKILTGDSELVAAKVCHEVGLDAGEVVIGSDIETLSDDELANLAQRTTLFARLTPMHKERIVTLLKREGHVVGFMGDGINDAPALRAADIGISVDGAVDIAREAADIILLEKSLMVLEEGVIEGRRTFANMLKYIKMTASSNFGNVFSVLVASAFLPFLPMLPLHLLIQNLLYDVSQVAIPFDNVDDEQIQKPQRWNPADLGRFMIFFGPISSIFDILTFCLMWWVFHANTPETQTLFQSGWFVVGLLSQTLIVHMIRTRRVPFIQSCASWPLMIMTVIVMIVGIALPFSPLASYLQLQALPLSYFPWLVAILAGYMTLTQLVKGFYSRRYGWQ
# B6: ABCC1 P1120F (Homo sapiens, UniProt P33527); sequence looked up; chain MALRGFCSADGSDPLWDWNVTWNTSNPDFTKCFQNTVLVWVPCFYLWACFPFYFLYLSRHDRGYIQMTPLNKTKTALGFLLWIVCWADLFYSFWERSRGIFLAPVFLVSPTLLGITMLLATFLIQLERRKGVQSSGIMLTFWLVALVCALAILRSKIMTALKEDAQVDLFRDITFYVYFSLLLIQLVLSCFSDRSPLFSETIHDPNPCPESSASFLSRITFWWITGLIVRGYRQPLEGSDLWSLNKEDTSEQVVPVLVKNWKKECAKTRKQPVKVVYSSKDPAQPKESSKVDANEEVEALIVKSPQKEWNPSLFKVLYKTFGPYFLMSFFFKAIHDLMMFSGPQILKLLIKFVNDTKAPDWQGYFYTVLLFVTACLQTLVLHQYFHICFVSGMRIKTAVIGAVYRKALVITNSARKSSTVGEIVNLMSVDAQRFMDLATYINMIWSAPLQVILALYLLWLNLGPSVLAGVAVMVLMVPVNAVMAMKTKTYQVAHMKSKDNRIKLMNEILNGIKVLKLYAWELAFKDKVLAIRQEELKVLKKSAYLSAVGTFTWVCTPFLVALCTFAVYVTIDENNILDAQTAFVSLALFNILRFPLNILPMVISSIVQASVSLKRLRIFLSHEELEPDSIERRPVKDGGGTNSITVRNATFTWARSDPPTLNGITFSIPEGALVAVVGQVGCGKSSLLSALLAEMDKVEGHVAIKGSVAYVPQQAWIQNDSLRENILFGCQLEEPYYRSVIQACALLPDLEILPSGDRTEIGEKGVNLSGGQKQRVSLARAVYSNADIYLFDDPLSAVDAHVGKHIFENVIGPKGMLKNKTRILVTHSMSYLPQVDVIIVMSGGKISEMGSYQELLARDGAFAEFLRTYASTEQEQDAEENGVTGVSGPGKEAKQMENGMLVTDSAGKQLQRQLSSSSSYSGDISRHHNSTAELQKAEAKKEETWKLMEADKAQTGQVKLSVYWDYMKAIGLFISFLSIFLFMCNHVSALASNYWLSLWTDDPIVNGTQEHTKVRLSVYGALGISQGIAVFGYSMAVSIGGILASRCLHVDLLHSILRSPMSFFERTPSGNLVNRFSKELDTVDSMIPEVIKMFMGSLFNVIGACIVILLATPIAAIIIFPLGLIYFFVQRFYVASSRQLKRLESVSRSPVYSHFNETLLGVSVIRAFEEQERFIHQSDLKVDENQKAYYPSIVANRWLAVRLECVGNCIVLFAALFAVISRHSLSAGLVGLSVSYSLQVTTYLNWLVRMSSEMETNIVAVERLKEYSETEKEAPWQIQETAPPSSWPQVGRVEFRNYCLRYREDLDFVLRHINVTINGGEKVGIVGRTGAGKSSLTLGLFRINESAEGEIIIDGINIAKIGLHDLRFKITIIPQDPVLFSGSLRMNLDPFSQYSDEEVWTSLELAHLKDFVSALPDKLDHECAEGGENLSVGQRQLVCLARALLRKTKILVLDEATAAVDLETDDLIQSTIRTQFEDCTVLTIAHRLNTIMDYTRVIVLDKGEIQEYGAPSDLLQQRGLFYSMAKDAGLV
# B7: halB 36-127 (Haloferax volcanii, UniProt D4GX31); sequence looked up; chain GGAVVVDEGETVDGDLDAVGGTVVVAGTVTGDVSATAGTVLVTETGVVNGNLDAVAGSATLEGSVGGSLAYDAATATVDAAAVVDGGVRQVD
# B8: NINJ1 x (Homo sapiens, UniProt Q92982); sequence looked up; chain MDSGTEEYELNGGLPPGTPGSPDASPARWGWRHGPINVNHYASKKSAAESMLDIALLMANASQLKAVVEQGPSFAFYVPLVVLISISLVLQIVVGVLLIVLVKYDLNNPAKHAKLDQLNNAATILVFIIVVVNIFITAFGVQKPLMDMAPQQ
# B9: dnaJ2 (Thermus thermophilus, UniProt Q56237); sequence looked up; chain MAAKKDYYAILGVPRNATQEEIKRAYKRLARQYHPDVNKSPEAEEKFKEINEAYAVLSDPEKRRIYDTYGTTEAPPPPPPGGYDFSGFDVEDFSEFFQELFGPGLFGGFGRRSRKGRDLRAELPLTLEEAFHGGERVVEVAGRRVSVRIPPGVREGSVIRVPGMGGQGNPPGDLLLVVRLLPHPVFRLEGQDLYATLDVPAPIAVVGGKVRAMTLEGPVEVAVPPRTQAGRKLRLKGKGFPGPAGRGDLYLEVRITIPERLTPEEEALWKKLAEAYYARA
# B10: SPOP S80R (Homo sapiens, UniProt O43791); sequence looked up; chain MSRVPSPPPPAEMSSGPVAESWCYTQIKVVKFSYMWTINNFSFCREEMGEVIKSSTFSSGANDKLKWCLRVNPKGLDEERKDYLSLYLLLVSCPKSEVRAKFKFSILNAKGEETKAMESQRAYRFVQGKDWGFKKFIRRDFLLDEANGLLPDDKLTLFCEVSVVQDSVNISGQNTMNMVKVPECRLADELGGLWENSRFTDCCLCVAGQEFQAHKAILAARSPVFSAMFEHEMEESKKNRVEINDVEPEVFKEMMCFIYTGKAPNLDKMADDLLAAADKYALERLKVMCEDALCSNLSVENAAEILILADLHSADQLKTQAVDFINYHASDVLETSGWKSMVVSHPHLVAEAYRSLASAQCPFLGPPRKRLKQS
# B11: ABCC2 203-1623 (Arabidopsis thaliana, UniProt Q42093); sequence looked up; chain YMPVRSETVDDYEYEEISDGQQICPEKHANIFDKIFFSWMNPLMTLGSKRPLTEKDVWYLDTWDQTETLFTSFQHSWDKELQKPQPWLLRALNNSLGGRFWWGGFWKIGNDCSQFVGPLLLNQLLKSMQEDAPAWMGYIYAFSIFVGVVFGVLCEAQYFQNVMRVGYRLRSALIAAVFRKSLRLTNEGRRKFQTGKITNLMTTDAESLQQICQSLHTMWSAPFRIIIALILLYQQLGVASLIGALLLVLMFPLQTVIISKMQKLTKEGLQRTDKRIGLMNEVLAAMDTVKCYAWENSFQSKVQTVRDDELSWFRKSQLLGALNMFILNSIPVLVTIVSFGVFTLLGGDLTPARAFTSLSLFAVLRFPLFMLPNIITQVVNANVSLKRLEEVLATEERILLPNPPIEPGEPAISIRNGYFSWDSKGDRPTLSNINLDVPLGSLVAVVGSTGEGKTSLISAILGELPATSDAIVTLRGSVAYVPQVSWIFNATVRDNILFGSPFDREKYERAIDVTSLKHDLELLPGGDLTEIGERGVNISGGQKQRVSMARAVYSNSDVYIFDDPLSALDAHVGQQVFEKCIKRELGQKTRVLVTNQLHFLSQVDRIVLVHEGTVKEEGTYEELSSNGPLFQRLMENAGKVEEYSEENGEAEADQTAEQPVANGNTNGLQMDGSDDKKSKEGNKKGGKSVLIKQEERETGVVSWRVLKRYQDALGGAWVVMMLLLCYVLTEVFRVTSSTWLSEWTDAGTPKSHGPLFYNLIYALLSFGQVLVTLTNSYWLIMSSLYAAKKLHDNMLHSILRAPMSFFHTNPLGRIINRFAKDLGDIDRTVAVFVNMFMGQVSQLLSTVVLIGIVSTLSLWAIMPLLVLFYGAYLYYQNTAREVKRMDSISRSPVYAQFGEALNGLSTIRAYKAYDRMADINGRSMDNNIRFTLVNMGANRWLGIRLETLGGLMIWLTASFAVMQNGRAENQQAFASTMGLLLSYALNITSLLTGVLRLASLAENSLNAVERVGNYIEIPPEAPPVIENNRPPPGWPSSGSIKFEDVVLRYRPQLPPVLHGVSFFIHPTDKVGIVGRTGAGKSSLLNALFRIVEVEKGRILIDDCDVGKFGLMDLRKVLGIIPQSPVLFSGTVRFNLDPFGEHNDADLWESLERAHLKDTIRRNPLGLDAEVSEAGENFSVGQRQLLSLSRALLRRSKILVLDEATAAVDVRTDALIQKTIREEFKSCTMLIIAHRLNTIIDCDKILVLDSGRVQEFSSPENLLSNEGSSFSKMVQSTGAANAEYLRSLVLDNKRAKDDSHHLQGQRKWLASSRWAAAAQFALAASLTSSHNDLQSLEIEDDSSILKRTNDAVVTLRSVLEGKHDKEIAESLEEHNISREGWLSSLYRMVEGLAVMSRLARNRMQQPDYNFEGNTFDWDNVEM
# B12: ph-p SAM 1397-1577 D16K/D17R/D33K/D34R (Drosophila melanogaster, UniProt P39769); sequence looked up; chain GVGSGETNGLGTGGIVGVDAMALVDRLDEAMAEEKMQTEATPKLSESFPILGASTEVPPMSLPVQAAISAPSPLAMPLGSPLSVALPTLAPLSVVTSGAAPKSSEVNGTDRPPISSWSVKRVSNFIRELPGCQDYVKRFIQQEIDGQALLLLKEKHLVNAMGMKLGPALKIVAKVESIKEV
# Chain of UniProt Q9NRZ9 (whole entry, looked up): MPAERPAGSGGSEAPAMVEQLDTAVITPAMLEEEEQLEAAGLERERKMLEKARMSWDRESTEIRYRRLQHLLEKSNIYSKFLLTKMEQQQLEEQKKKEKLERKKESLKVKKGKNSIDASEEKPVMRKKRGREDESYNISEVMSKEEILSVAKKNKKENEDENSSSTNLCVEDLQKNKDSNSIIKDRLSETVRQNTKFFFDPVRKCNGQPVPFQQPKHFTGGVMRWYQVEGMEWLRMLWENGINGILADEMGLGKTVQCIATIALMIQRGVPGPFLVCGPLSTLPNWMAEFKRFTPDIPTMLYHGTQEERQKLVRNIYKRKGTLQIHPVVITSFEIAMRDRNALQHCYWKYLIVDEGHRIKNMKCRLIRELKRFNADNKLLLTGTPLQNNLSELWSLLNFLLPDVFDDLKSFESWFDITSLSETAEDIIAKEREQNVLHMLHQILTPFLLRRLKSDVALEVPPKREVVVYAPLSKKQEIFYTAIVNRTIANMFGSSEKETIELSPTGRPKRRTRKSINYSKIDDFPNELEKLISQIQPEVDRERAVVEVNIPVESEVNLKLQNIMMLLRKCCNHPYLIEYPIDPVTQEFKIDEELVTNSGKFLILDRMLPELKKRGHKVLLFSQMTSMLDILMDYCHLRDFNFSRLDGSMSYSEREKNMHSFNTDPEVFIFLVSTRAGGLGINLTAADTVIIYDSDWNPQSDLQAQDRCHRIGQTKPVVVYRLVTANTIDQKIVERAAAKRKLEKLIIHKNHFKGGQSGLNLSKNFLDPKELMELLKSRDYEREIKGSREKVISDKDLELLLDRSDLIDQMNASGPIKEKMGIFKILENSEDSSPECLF
Substance,method,molecule type,time,pH,temperature,setting,binding
B1 (APPBP2 1-584),cryo-EM,,,,,,binds
B2 (spo0J K252A/K259A),SEC-MALS,,,,,,binds
B3 (CRYAA R157Q),SEC-MALS,,1 hour h,pH 7.4,37 °C,,binds
B4 (dlg1 1-97 R39A),SEC,,,,,,binds
B5 (mgtA 1-898 D441A),native gel or EMSA,,,,,,binds
B6 (ABCC1 P1120F),SEC,,,,,,binds
B7 (halB 36-127),negative-stain TEM,,,,,,binds
B8 (NINJ1 x),negative-stain EM,,,,,,binds
B9 (dnaJ2),cryo-EM,,,,,,binds
B10 (SPOP S80R),negative-stain TEM,,,,,,binds
"HELLS (Homo sapiens, UniProt Q9NRZ9)",SEC,,,,,,binds
B11 (ABCC2 203-1623),mass photometry,,,,,,binds
B12,AUC,,,,,,binds
"SQQPYNNQGQQQNME (TAF15 79-93 (Homo sapiens, UniProt Q92804); N-acetyl/C-amide; sequence looked up)",negative-stain TEM,peptide,,,,peptide,binds
